# Assay results gathered from unrelated publications.
# Each line is one published result; not all experiments were run side by side. Values joined by “and” are separate records of one study, mostly repeats; a detail may differ.
# Target: Serine/threonine-protein kinase Sgk2 (SGK2, Homo sapiens, UniProt Q9HBY8)
Compound,test,system,setting,how to read,measurement,result
Nc1ncc(-c2cc(-c3cnn(CC(F)(F)F)c3)ncc2F)nc1C(=O)NC1CNCC(F)C1 (stereo not drawn),enzyme activity,,1 µM,reference: DMSO control,remaining activity,98.2%
C=CC(=O)N1CCc2ccc(-n3c(=O)ccc4cnc5ccc(-c6cnn(C)c6)cc5c43)cc21,KINOMEscan,,1 µM,reference: DMSO control,remaining binding,100%
CNC1C[S+]2CC[S+]3CC[S+](C1)[Ru-4]321([N]=C=S)[n]2c3ccc(OC)cc3c3c4c(c5cc(F)c[n+]1c5c32)C(=O)NC4=O (stereo not drawn),KinomeScan,,0.1 µM,reference: untreated,remaining binding,86%
COc1c(Cl)cccc1Nc1c(-c2ccncc2C#C[C@@]2(C)CCCN2C(=O)/C=C/CN(C)C)[nH]c2c1C(=O)NCC2,"binding, competition with immobilised ligand",,3 µM,,remaining binding,64%
Cc1cccc(O[C@H]2CCC[C@@H](C(C)CNCc3ccncc3)C2)c1 (relative stereo),"enzyme activity, inhibitor",,10 µM,,inhibition,-16%
CNC(=O)C[C@H](Cc1ccc(C#N)cc1)NC(=O)c1cc(-c2ccc(CN[C@H](C)c3ccc(C)cc3)o2)ccc1Cl,"enzyme activity, inhibitor",,1 µM,,activity vs control,104%
COc1cc(Nc2nccc(-c3cnn4nc(OC)ccc34)n2)cc(C(F)(F)F)c1,"binding, competition with immobilised ligand",,1 µM,,remaining binding,76%
C=CC(=O)Nc1cccc(-c2cnc3[nH]cc(C(=O)NC(C)(C)C)c3n2)c1,kinase activity,,0.1 µM,,inhibition,2% and 5%
COc1ccc(NC(=O)Nc2ccc3c(c2)C(=O)N(C(C)CO)CC(C)C(CN(C)Cc2ccc4c(c2)OCO4)O3)cc1 (stereo not drawn),"kinase activity, KinaseProfiler",,"0.03 µM, species human",reference: control,remaining activity,105%
Cc1ccc(C(=O)Nc2ccc(CN3CCN(C)CC3)c(C(F)(F)F)c2)cc1C#Cc1cnc2cccnn12,"target engagement, NanoBRET",human cells,,,Hill slope,0.111
NC(=O)[C@@H](O)C[C@H]1CCc2sc3ncnc(O[C@H]4CC[C@H](N5CCOCC5)CC4)c3c21,"enzyme activity, inhibitor",,10 µM,,inhibition,7%
CN1CCN(Cc2ccc(-c3ccc(CO[C@H]4CCC[C@@H]4NC(=O)c4cc(-c5cnn(C)c5)cnc4N)cc3)cc2)CC1,"enzyme activity, inhibitor",,0.1 µM,,inhibition,9%
COc1c(OCCCN2CCOCC2)ccc2c1N=C(NC(=O)c1cnc(N)nc1)N1CCN=C21,"kinase activity, inhibitor",,1 µM,reference: untreated control,remaining activity,78%
Cc1cnc2nc1Nc1cccc(c1)COC/C=C/COCc1cc(ccc1OCCN1CCOCC1)N2,"binding, competition with immobilised ligand",,0.1 µM,,remaining binding,90%
COCC12C(=O)NC3C4(C(OC)CC1O)C1CC5(O)C(OC)C(O)C(OC(C)=O)(C1C5OC(=O)c1ccccc1)C3(O)C(OC)C24 (stereo not drawn),"kinase activity, inhibitor, ProQinase kinase profiling",,25 µM,reference: control,remaining activity,118% and 97%

# Some of these lines once more:
Compound,test,system,setting,how to read,measurement,result
COCC12C(=O)NC3C4(C(OC)CC1O)C1CC5(O)C(OC)C(O)C(OC(C)=O)(C1C5OC(=O)c1ccccc1)C3(O)C(OC)C24 (stereo not drawn),"kinase activity, inhibitor, ProQinase kinase profiling",,25 µM,reference: control,remaining activity,118% and 97%
